Measurements gathered from unrelated publications.
Each line is one published result; not all experiments were run side by side. ± gives the spread as reported.
DCN1-like protein 1: DCN1-like protein 1 (Homo sapiens, UniProt Q96GG9)
Chain of UniProt Q96GG9 (whole entry, looked up): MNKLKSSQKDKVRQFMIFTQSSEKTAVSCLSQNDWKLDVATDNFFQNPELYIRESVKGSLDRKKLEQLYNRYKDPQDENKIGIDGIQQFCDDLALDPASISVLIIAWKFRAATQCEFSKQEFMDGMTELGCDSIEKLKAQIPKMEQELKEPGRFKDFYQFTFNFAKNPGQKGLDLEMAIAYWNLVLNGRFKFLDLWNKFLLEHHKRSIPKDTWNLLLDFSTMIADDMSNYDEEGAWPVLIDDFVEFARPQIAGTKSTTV
GLP1R: Glucagon-like peptide 1 receptor (GLP1R, Homo sapiens, UniProt P43220)
Chain of UniProt P39656 (whole entry, looked up): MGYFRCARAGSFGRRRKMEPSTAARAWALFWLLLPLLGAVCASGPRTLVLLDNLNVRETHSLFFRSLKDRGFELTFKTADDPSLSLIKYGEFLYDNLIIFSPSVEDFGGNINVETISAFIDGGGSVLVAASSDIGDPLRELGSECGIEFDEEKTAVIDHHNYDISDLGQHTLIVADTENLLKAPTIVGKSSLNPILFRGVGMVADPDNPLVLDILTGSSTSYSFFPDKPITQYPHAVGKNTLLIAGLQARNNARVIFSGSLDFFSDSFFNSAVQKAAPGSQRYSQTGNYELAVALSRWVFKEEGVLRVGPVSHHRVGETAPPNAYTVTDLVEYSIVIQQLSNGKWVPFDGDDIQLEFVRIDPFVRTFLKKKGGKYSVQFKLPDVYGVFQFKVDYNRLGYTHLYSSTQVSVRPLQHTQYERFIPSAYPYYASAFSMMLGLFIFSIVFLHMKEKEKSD
Chain of UniProt P08908 (whole entry, looked up): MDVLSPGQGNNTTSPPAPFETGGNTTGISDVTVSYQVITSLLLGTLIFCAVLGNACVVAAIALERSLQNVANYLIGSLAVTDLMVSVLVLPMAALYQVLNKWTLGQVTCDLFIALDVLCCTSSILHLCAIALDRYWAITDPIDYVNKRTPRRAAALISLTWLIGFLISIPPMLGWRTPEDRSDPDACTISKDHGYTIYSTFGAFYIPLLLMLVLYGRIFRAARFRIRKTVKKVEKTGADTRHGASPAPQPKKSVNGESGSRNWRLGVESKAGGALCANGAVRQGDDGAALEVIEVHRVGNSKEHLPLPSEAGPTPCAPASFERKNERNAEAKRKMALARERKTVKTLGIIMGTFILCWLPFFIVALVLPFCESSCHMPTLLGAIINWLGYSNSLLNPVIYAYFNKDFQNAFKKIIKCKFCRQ
Chain of UniProt Q14790 (whole entry, looked up): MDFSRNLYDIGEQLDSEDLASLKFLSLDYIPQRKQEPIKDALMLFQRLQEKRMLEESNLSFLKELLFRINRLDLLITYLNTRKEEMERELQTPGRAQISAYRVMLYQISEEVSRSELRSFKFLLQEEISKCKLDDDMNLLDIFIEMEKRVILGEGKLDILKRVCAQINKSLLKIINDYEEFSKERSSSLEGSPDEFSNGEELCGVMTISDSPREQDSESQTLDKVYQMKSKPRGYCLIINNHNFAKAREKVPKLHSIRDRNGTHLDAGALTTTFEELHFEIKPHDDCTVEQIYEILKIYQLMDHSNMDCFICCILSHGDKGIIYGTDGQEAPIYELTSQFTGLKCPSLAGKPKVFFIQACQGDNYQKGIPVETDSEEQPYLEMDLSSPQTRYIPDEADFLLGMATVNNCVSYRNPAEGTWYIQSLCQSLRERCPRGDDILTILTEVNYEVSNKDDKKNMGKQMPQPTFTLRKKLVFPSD
Chain of UniProt Q8NET8 (whole entry, unmodified, looked up): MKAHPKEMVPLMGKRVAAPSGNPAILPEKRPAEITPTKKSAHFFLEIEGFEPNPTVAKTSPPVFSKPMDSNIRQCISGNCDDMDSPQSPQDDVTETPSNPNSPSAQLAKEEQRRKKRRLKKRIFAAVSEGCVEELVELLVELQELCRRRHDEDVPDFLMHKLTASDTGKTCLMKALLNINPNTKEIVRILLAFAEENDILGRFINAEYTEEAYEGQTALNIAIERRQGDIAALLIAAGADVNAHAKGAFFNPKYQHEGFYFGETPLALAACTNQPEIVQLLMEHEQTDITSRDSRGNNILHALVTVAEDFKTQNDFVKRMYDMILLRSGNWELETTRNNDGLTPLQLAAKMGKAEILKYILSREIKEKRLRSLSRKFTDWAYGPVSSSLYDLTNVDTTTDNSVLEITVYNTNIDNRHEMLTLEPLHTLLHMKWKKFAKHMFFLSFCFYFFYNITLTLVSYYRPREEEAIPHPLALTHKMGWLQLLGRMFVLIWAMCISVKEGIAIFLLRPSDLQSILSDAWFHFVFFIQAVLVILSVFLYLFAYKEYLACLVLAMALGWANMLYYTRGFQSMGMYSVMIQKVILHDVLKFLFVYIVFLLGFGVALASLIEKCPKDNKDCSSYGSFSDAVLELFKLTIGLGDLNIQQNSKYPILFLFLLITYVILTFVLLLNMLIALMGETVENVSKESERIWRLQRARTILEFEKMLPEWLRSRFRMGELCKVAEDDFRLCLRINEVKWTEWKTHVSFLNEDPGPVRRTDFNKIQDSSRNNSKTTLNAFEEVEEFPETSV
Chain of UniProt O75815 (whole entry, looked up): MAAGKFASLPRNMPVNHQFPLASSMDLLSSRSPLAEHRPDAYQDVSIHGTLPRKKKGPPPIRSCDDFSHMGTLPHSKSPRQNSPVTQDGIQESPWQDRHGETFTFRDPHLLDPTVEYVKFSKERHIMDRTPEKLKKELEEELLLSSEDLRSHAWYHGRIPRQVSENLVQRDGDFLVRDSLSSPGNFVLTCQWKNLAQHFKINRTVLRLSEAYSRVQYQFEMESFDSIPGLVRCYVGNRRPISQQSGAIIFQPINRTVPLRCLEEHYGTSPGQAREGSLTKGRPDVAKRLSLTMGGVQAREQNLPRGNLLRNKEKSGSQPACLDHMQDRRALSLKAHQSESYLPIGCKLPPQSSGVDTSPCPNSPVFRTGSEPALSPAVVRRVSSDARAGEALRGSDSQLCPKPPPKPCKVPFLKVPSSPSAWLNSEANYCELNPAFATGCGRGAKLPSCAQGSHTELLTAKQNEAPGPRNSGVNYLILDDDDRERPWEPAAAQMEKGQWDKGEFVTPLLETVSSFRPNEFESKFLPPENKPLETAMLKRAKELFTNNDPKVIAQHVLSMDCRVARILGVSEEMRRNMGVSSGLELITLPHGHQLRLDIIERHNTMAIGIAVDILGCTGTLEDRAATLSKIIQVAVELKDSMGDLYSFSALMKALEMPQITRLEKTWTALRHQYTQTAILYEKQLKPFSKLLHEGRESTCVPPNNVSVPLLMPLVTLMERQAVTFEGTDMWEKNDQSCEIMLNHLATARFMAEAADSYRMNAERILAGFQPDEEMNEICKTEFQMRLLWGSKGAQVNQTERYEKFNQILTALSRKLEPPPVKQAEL

SMILES | target | test | system | conditions | endpoint | result
COc1cc(Nc2ncc(F)c(Nc3ccc4c(n3)NC(=O)C(C)(C)O4)n2)cc(OC)c1OC | Caspase-8 (CASP8, Homo sapiens, UniProt Q14790) | – | – | – | IC50 | > 10000 nM
CSCC[C@H](NC(=O)[C@H](CC(=O)O)NC(=O)c1ccc2c(c1)C(=O)OC21c2ccc(N(C)C)cc2Oc2cc(N(C)C)ccc21)C(=O)N[C@@H](CO)C(=O)N[C@@H](CCCCN)C(=O)N[C@@H](CC(=O)O)C(=O)N[C@@H](CCC(=O)O)C(=O)N[C@@H](CO)C(=O)N[C@H](C(=O)N[C@@H](CC(=O)O)C(=O)N[C@@H](Cc1ccc(OP(=O)(O)O)cc1)C(=O)N[C@H](C(=O)N1CCC[C@H]1C(=O)N[C@@H](CCSC)C(=O)N[C@@H](CC(C)C)C(=O)N[C@@H](CC(=O)O)C(=O)N[C@@H](CCSC)C(=O)N[C@@H](CCCCN)C(=O)N[C@@H](CC(=O)O)C(=O)O)C(C)C)C(C)C | Breast cancer anti-estrogen resistance protein 3, SH2 domain (BCAR3, Homo sapiens, UniProt O75815) | binding | – | – | Kd | 701 nM
C[C@H]1CN(c2n[nH]c3nc(N[C@H]4CC[C@H](NS(=O)(=O)CCC(F)(F)F)CC4)ncc23)CCO1 | Dolichyl-diphosphooligosaccharide--protein glycosyltransferase 48 kDa subunit (Homo sapiens, UniProt P39656) | biochemical | – | – | IC50 | ≥ 20000 nM
CCN1C(=O)[C@@H](N)[C@@H](c2ccc(F)cc2)c2c(C)nn(-c3ccccc3)c21 | DCN1-like protein 1 | – | – | – | IC50 | > 15000 nM
CC[C@H](C)[C@H](NC(=O)[C@H](Cc1ccccc1)NC(=O)[C@H](CCC(=O)O)NC(=O)[C@H](CCCNC(=N)N)NC(=O)[C@H](C)NC(=O)[C@H](C)NC(=O)[C@H](CCC(N)=O)NC(=O)[C@H](CCC(=O)O)NC(=O)[C@H](CCC(=O)O)NC(=O)[C@H](CC(C)C)NC(=O)[C@H](Cc1ccc(O)cc1)NC(=O)[C@H](CO)NC(=O)[C@H](CO)NC(=O)[C@@H](NC(=O)[C@H](CC(=O)O)NC(=O)[C@H](CO)NC(=O)[C@@H](NC(=O)[C@H](Cc1ccccc1)NC(=O)[C@@H](NC(=O)CNC(=O)[C@H](CCC(=O)O)NC(=O)[C@H](C)NC(=O)CCc1cnc[nH]1)[C@@H](C)O)[C@@H](C)O)C(C)C)C(=O)N[C@@H](C)C(=O)N[C@@H](Cc1c[nH]c2ccccc12)C(=O)N[C@@H](CC(C)C)C(=O)N[C@H](C(=O)N[C@@H](CCCCNC(=O)COCCOCCNC(=O)COCCOCCNC(=O)CC[C@H](NC(=O)CCCCCCCCCCCCCCCCC(=O)O)C(=O)O)C(=O)NCC(=O)N[C@@H](CCCNC(=N)N)C(=O)N[C@@H](CCCCNc1c(NCCCCCN(O)C(=O)CCC(=O)NCCCCCN(O)C(=O)CCC(=O)NCCCCCN(O)C(C)=O)c(=O)c1=O)C(=O)NCC(=O)NCC(=O)N[C@@H](CO)C(=O)N[C@@H](CCCCNc1c(NCCCCCN(O)C(=O)CCC(=O)NCCCCCN(O)C(=O)CCC(=O)NCCCCCN(O)C(C)=O)c(=O)c1=O)C(=O)O)C(C)C | GLP1R | cAMP reporter gene, agonist, CRE luciferase | BHK | with Zr, 0% HSA | EC50 | 0.0057 nM
Cc1nn(-c2ccccc2C(F)(F)F)c2c1[C@H](c1ccc(F)cc1)[C@H](NC(=O)c1cccc(C(F)(F)F)c1)C(=O)N2 | DCN1-like protein 1 | – | – | – | IC50 | > 15000 nM
CC[C@H](C)[C@H](NC(=O)[C@H](Cc1ccccc1)NC(=O)[C@H](CCC(=O)O)NC(=O)[C@H](CCCNC(=N)N)NC(=O)[C@H](C)NC(=O)[C@H](C)NC(=O)[C@H](CCC(N)=O)NC(=O)[C@H](CCC(=O)O)NC(=O)[C@H](CCC(=O)O)NC(=O)[C@H](CC(C)C)NC(=O)[C@H](Cc1ccc(O)cc1)NC(=O)[C@H](CO)NC(=O)[C@H](CO)NC(=O)[C@@H](NC(=O)[C@H](CC(=O)O)NC(=O)[C@H](CO)NC(=O)[C@@H](NC(=O)[C@H](Cc1ccccc1)NC(=O)[C@@H](NC(=O)CNC(=O)[C@H](CCC(=O)O)NC(=O)[C@H](C)NC(=O)CCc1cnc[nH]1)[C@@H](C)O)[C@@H](C)O)C(C)C)C(=O)N[C@@H](C)C(=O)N[C@@H](Cc1c[nH]c2ccccc12)C(=O)N[C@@H](CC(C)C)C(=O)N[C@H](C(=O)N[C@@H](CCCNC(=N)N)C(=O)NCC(=O)N[C@@H](CCCNC(=N)N)C(=O)N[C@@H](CCCCNC(=O)COCCOCCNC(=O)COCCOCCNC(=O)CC[C@H](NC(=O)CCCCCCCCCCCCCCCCC(=O)O)C(=O)O)C(=O)NCC(=O)NCC(=O)N[C@@H](CO)C(=O)N[C@@H](CCSC)C(=O)N[C@H](C(=O)N[C@@H](CCCCNc1c(NCCCCCN(O)C(=O)CCC(=O)NCCCCCN(O)C(=O)CCC(=O)NCCCCCN(O)C(C)=O)c(=O)c1=O)C(=O)O)C(C)C)C(C)C | GLP1R | cAMP reporter gene, agonist, CRE luciferase | BHK | with Zr, 0% HSA | EC50 | 0.0026 nM
COc1ccc(N=Nc2ccc3[nH]cc(CCN(C)C)c3c2)cc1 | HTR1A (Homo sapiens, UniProt P08908) | binding, radioligand binding | – | ambient light | Ki | 24.8 nM
CC[C@H](C)[C@H](NC(=O)[C@H](Cc1ccccc1)NC(=O)[C@H](CCC(=O)O)NC(=O)[C@H](CCCNC(=N)N)NC(=O)[C@H](C)NC(=O)[C@H](C)NC(=O)[C@H](CCC(N)=O)NC(=O)[C@H](CCC(=O)O)NC(=O)[C@H](CCC(=O)O)NC(=O)[C@H](CC(C)C)NC(=O)[C@H](Cc1ccc(O)cc1)NC(=O)[C@H](CO)NC(=O)[C@H](CO)NC(=O)[C@H](CCCCNc1c(NCCCCCN(O)C(=O)CCC(=O)NCCCCCN(O)C(=O)CCC(=O)NCCCCCN(O)C(C)=O)c(=O)c1=O)NC(=O)[C@H](CC(=O)O)NC(=O)[C@H](CO)NC(=O)[C@@H](NC(=O)[C@H](Cc1ccccc1)NC(=O)[C@@H](NC(=O)CNC(=O)[C@H](CCC(=O)O)NC(=O)[C@H](C)NC(=O)CCc1cnc[nH]1)[C@@H](C)O)[C@@H](C)O)C(=O)N[C@@H](C)C(=O)N[C@@H](Cc1c[nH]c2ccccc12)C(=O)N[C@@H](CC(C)C)C(=O)N[C@H](C(=O)N[C@@H](CCCNC(=N)N)C(=O)NCC(=O)N[C@@H](CCCNC(=N)N)C(=O)N[C@@H](CCCCNC(=O)COCCOCCNC(=O)COCCOCCNC(=O)CC[C@H](NC(=O)CCCCCCCCCCCCCCCCC(=O)O)C(=O)O)C(=O)NCC(=O)NCC(=O)N[C@@H](CO)C(=O)N[C@@H](CCCCNc1c(NCCCCCN(O)C(=O)CCC(=O)NCCCCCN(O)C(=O)CCC(=O)NCCCCCN(O)C(C)=O)c(=O)c1=O)C(=O)O)C(C)C | GLP1R | cAMP reporter gene, agonist, CRE luciferase | BHK | without Zr, 0% HSA | EC50 | 0.02 nM
CCCc1cc(O)c2c(c1)OC(C)(C)[C@@H]1CCC(C)=C[C@@H]21 | TRPV3 (Homo sapiens, UniProt Q8NET8, N561A) | calcium uptake, agonist | HEK293S | mutant N561A, site 1 | EC50 | 20300 ± 1410 nM
